{"data": "Published values pooled from the literature", "note": "Parts stem from different laboratories: compare values within a part only."}
{"data": "Series 1", "target": "Sal-like protein 4, full length isoform B (SALL4, Homo sapiens, UniProt Q9UJQ4-2, residues 1-616)", "method": "universal PBM", "form": "double-stranded DNA, one strand shown", "matrix": "in vitro", "tested at": "not given", "setting": "8-mer, flanks averaged, mean of replicates", "reading": "higher = stronger binding"}
{"Strand": "GTCTAGGA", "E-score": 0.0551}
{"Strand": "ACTGTATC", "E-score": 0.132}
{"Strand": "AGAGCAAT", "E-score": 0.0621}
{"Strand": "AACTTTGA", "E-score": 0.109}
{"Strand": "GGCACCAC", "E-score": -0.361}
{"Strand": "CAAACTAC", "E-score": 0.0733}
{"Strand": "CAAGCTGG", "E-score": -0.144}
{"Strand": "TCTGGCAA", "E-score": -0.132}
{"Strand": "AGTAGGAG", "E-score": -0.219}
{"Strand": "AGCTGTGC", "E-score": -0.2}
{"Strand": "AGTTATAA", "E-score": 0.37}
{"Strand": "CCCGTTCA", "E-score": -0.138}
{"Strand": "AACGTCGA", "E-score": 0.125}
{"Strand": "AGACTGCA", "E-score": -0.0306}
{"Strand": "CTGTCGAA", "E-score": -0.071}
{"Strand": "AAATCCGA", "E-score": 0.0232}
{"Strand": "TAGATAGA", "E-score": 0.143}
{"Strand": "CATAGGAG", "E-score": 0.0718}
{"Strand": "GAGATCTC", "E-score": -0.0653}
{"Strand": "GCTGGAAA", "E-score": -0.0494}
{"Strand": "GCTGGACC", "E-score": -0.28}
{"Strand": "AAGCAATT", "E-score": 0.24}
{"Strand": "ATGTGCTG", "E-score": 0.0378}
{"Strand": "ATCACGAA", "E-score": 0.134}
{"Strand": "GGCGAGGA", "E-score": -0.0406}
{"data": "Series 2", "target": "Ras GTPase-activating protein-binding protein 1, full length (G3BP1, Homo sapiens, UniProt Q13283)", "method": "RNA Bind-n-Seq", "form": "RNA", "matrix": "in vitro", "tested at": "200 nM", "setting": "whole 134-nt RNA, ends assumed", "with": "150 mM LiCl", "reference": "input library", "reading": "higher = stronger binding", "library": "7-deaza-guanosine replaces G", "all sequences stand within": "GGGAGUUCUACAGUCCGACGAUC … UGGAAUUCUCGGGUGUCAAGG", "chain of UniProt Q13283 (whole entry, looked up)": "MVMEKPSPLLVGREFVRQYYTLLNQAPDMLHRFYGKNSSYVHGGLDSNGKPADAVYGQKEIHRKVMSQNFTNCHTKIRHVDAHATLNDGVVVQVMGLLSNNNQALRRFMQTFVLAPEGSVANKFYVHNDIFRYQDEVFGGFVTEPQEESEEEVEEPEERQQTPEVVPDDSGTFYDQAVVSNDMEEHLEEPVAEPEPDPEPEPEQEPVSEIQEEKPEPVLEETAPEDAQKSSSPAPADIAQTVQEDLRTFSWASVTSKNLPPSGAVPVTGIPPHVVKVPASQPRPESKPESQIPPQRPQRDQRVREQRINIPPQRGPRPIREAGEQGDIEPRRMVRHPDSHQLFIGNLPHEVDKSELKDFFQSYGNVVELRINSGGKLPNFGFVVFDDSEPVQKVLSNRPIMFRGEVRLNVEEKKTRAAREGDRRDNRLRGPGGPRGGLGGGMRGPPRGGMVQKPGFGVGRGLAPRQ"}
{"Strand": "AGUCCUGUGCUACACAUCGUAUGUACCGAAUCAAACCCAAACCCCCAAACCCCCAAAAAAGUAUUAUGUUACGCCGUUCGGAUCUGCACU", "log2 enrichment": -0.026}
{"Strand": "GUCCUGUGCUACACAUCGUAUGUACCGAAUCGGGAAAAAGGGGAAAAAGGAAAAAGGGAAAGUAUUAUGUUACGCCGUUCGGAUCUGCAC", "log2 enrichment": 0.135}
{"Strand": "AGUCCUGUGCUACACAUCGUAUGUACCGAAUCGGGGUUUUUUUGGGGAGGGGAGGGGAAAGUAUUAUGUUACGCCGUUCGGAUCUGCACU", "log2 enrichment": 0.771}
{"Strand": "GGCCCGACCUGAUCGACUUUGAUAAGCUGAAGGACUCCAAUGCCCGGCACAACCUGGAGCACGCAUUCAAUGUGGCUGAGCGCCAGCUGG", "log2 enrichment": -0.165}
{"Strand": "CAAGUCCUGUGCUACACAUCGUAUGUACCGAAUCGGAAAAGGGAAAAGGAAAAGGGAAAGUAUUAUGUUACGCCGUUCGGAUCUGCACUU", "log2 enrichment": -1.07}
{"Strand": "CAAGUCCUGUGCUACACAUCGUAUGUACCGAAUCGGGGCCCGGCCCGGGGCCCGGGAAAGUAUUAUGUUACGCCGUUCGGAUCUGCACUU", "log2 enrichment": -1.16}
{"Strand": "UCCUCAAGUCCUGUGCUACACAUCGUAUGUACCGAAUCGGAGGGAGGAGGGAAAGUAUUAUGUUACGCCGUUCGGAUCUGCACUUCCAGC", "log2 enrichment": -0.438}
{"Strand": "UAACUUUAGAGGAGGAUCUGAUGGAUAUGGCAGUGGACGUGGAUUUGGGGAAGGCUAUAAUGGGUAUGGAGGAGGACCUGGAGGUGGCAA", "log2 enrichment": -0.0889}
{"data": "Series 3", "target": "Histone acetyltransferase KAT6A, winged helix 1, GST fusion (KAT6A, Homo sapiens, UniProt Q92794, residues 1-85)", "method": "protein binding microarray", "form": "double-stranded DNA, one strand shown", "matrix": "in vitro", "tested at": "not given", "setting": "8-mer, flanks averaged, mean of 2 arrays, mostly near background", "reference": "not given", "reading": "higher = stronger binding", "Residues (chain)": "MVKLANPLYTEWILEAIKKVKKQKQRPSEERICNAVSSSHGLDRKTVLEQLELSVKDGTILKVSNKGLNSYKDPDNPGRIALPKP"}
{"Strand": "AGGAACGC", "E-score": 0.211}
{"Strand": "TATCGGAA", "E-score": -0.0817}
{"Strand": "ATAGGATA", "E-score": -0.121}
{"Strand": "ACACTTCT", "E-score": -0.174}
{"Strand": "AAGAGGTC", "E-score": -0.0821}
{"Strand": "AAGTACCA", "E-score": -0.0844}
{"Strand": "ACAACATG", "E-score": -0.0814}
{"Strand": "AAACATCC", "E-score": -0.103}
{"Strand": "CACGACTA", "E-score": -0.162}
{"Strand": "CGGCAACA", "E-score": 0.231}
{"Strand": "GTCATCGA", "E-score": -0.0602}
{"Strand": "CAGTGACA", "E-score": -0.201}
{"Strand": "CTATATAA", "E-score": -0.0992}
{"Strand": "ACGACCGA", "E-score": -0.0985}
{"Strand": "CCAGGAGC", "E-score": -0.0627}
{"Strand": "CTAAACAC", "E-score": -0.0366}
{"Strand": "CTCTATGA", "E-score": -0.129}
{"Strand": "CTAAGACA", "E-score": 0.00789}
{"Strand": "AACTGACT", "E-score": -0.00844}
{"Strand": "GCTTGAAA", "E-score": -0.0856}
{"Strand": "ACCACGGT", "E-score": -0.0113}
{"Strand": "GTAACTAC", "E-score": 0.064}
{"Strand": "TCGATGAA", "E-score": -0.124}
{"Strand": "TACCAGAA", "E-score": -0.0809}
{"Strand": "GATGGAGA", "E-score": -0.145}
{"data": "Series 4", "target": "Interferon regulatory factor 7, full length, phosphomimetic (IRF7, Homo sapiens, UniProt Q92985, residues 1-503, S471D/S472D/S475D/S476D/S477D/S483D/S484D/S487D)", "method": "protein-binding microarray", "form": "double-stranded DNA, one strand shown", "matrix": "in vitro", "tested at": "2200 nM top", "setting": "60-bp whole probe", "with": "salmon DNA 0.4 mg/ml", "reference": "random background probes", "reading": "higher = stronger binding", "all sequences stand within": "GCCTAGCAC … GTCTTGATTCGCTTGACGCTGCTG", "Construct (chain)": "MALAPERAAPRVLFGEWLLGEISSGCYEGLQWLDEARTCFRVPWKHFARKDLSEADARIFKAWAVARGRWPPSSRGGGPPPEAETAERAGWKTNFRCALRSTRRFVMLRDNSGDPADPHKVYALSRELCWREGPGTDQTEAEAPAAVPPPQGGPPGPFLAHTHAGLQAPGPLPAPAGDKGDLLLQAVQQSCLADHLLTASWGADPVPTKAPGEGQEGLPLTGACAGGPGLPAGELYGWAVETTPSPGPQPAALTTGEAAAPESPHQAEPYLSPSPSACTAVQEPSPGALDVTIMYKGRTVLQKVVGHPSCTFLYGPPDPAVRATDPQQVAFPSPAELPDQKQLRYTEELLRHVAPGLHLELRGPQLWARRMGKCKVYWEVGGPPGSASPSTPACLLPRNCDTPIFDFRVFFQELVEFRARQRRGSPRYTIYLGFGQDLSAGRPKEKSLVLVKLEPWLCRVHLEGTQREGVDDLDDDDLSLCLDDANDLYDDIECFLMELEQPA"}
{"Strand": "AGGGAGGTCTCTCCCGACCTGTGCTAG", "fitted relative affinity [z-score]": -0.906}
{"Strand": "TTAGGACTGGACTATCGGTCAGTGCTA", "fitted relative affinity [z-score]": -0.734}
{"Strand": "TCAGGACTGGGGACTGGGTTAGTGCTA", "fitted relative affinity [z-score]": -1.12}
{"Strand": "GACGGTATCGGGTATCGGGAAGTGCTA", "fitted relative affinity [z-score]": -0.122}
{"Strand": "TCCCTTTTCATGCTCTTATAGTGCTAG", "fitted relative affinity [z-score]": 3.23}
{"Strand": "GGCGATTTCGGGTATCGAGACGTGCTA", "fitted relative affinity [z-score]": 2.75}
{"Strand": "TTAGGACCGGGGTTTCGGTTAGTGCTA", "fitted relative affinity [z-score]": 2.48}
{"Strand": "TTAGATTGCGGGTATCGATTAGTGCTA", "fitted relative affinity [z-score]": 0.473}
{"Strand": "TTGGATTTCGGGACTGGATTAGTGCTA", "fitted relative affinity [z-score]": 1.32}
{"Strand": "TTAGTTTTCGGGTTTCGGTTAGTGCTA", "fitted relative affinity [z-score]": 11.2}
{"Strand": "CACAGGCTGCACAGAATGTAGTGCTAG", "fitted relative affinity [z-score]": -0.46}
{"Strand": "GACGATTTGAGTATCGAGACGTGCTAG", "fitted relative affinity [z-score]": 0.545}
{"Strand": "TTAGACCTCAGTCTCGATTAGTGCTAG", "fitted relative affinity [z-score]": 0.146}
{"Strand": "CTCCCTCTGTAAGTCAGCACGTGCTAG", "fitted relative affinity [z-score]": 1.05}
{"Strand": "TTAGATATCAGTATCGTTTAGTGCTAG", "fitted relative affinity [z-score]": 0.68}
{"Strand": "TTAGGTTTCGACTATCGGGTAGTGCTA", "fitted relative affinity [z-score]": 3.31}
{"Strand": "TTAGGTTTCGACACAGGGTTAGTGCTA", "fitted relative affinity [z-score]": 2.16}
{"Strand": "GACGACCTGAGTATCGAGACGTGCTAG", "fitted relative affinity [z-score]": 0.107}
{"Strand": "CTAGGACTGCTTTTCCTTTAGTGCTAG", "fitted relative affinity [z-score]": 1.44}
{"note": "Repeated from above (series 4):"}
{"Strand": "CACAGGCTGCACAGAATGTAGTGCTAG", "fitted relative affinity [z-score]": -0.46}
{"Strand": "TCAGGACTGGGGACTGGGTTAGTGCTA", "fitted relative affinity [z-score]": -1.12}
{"Strand": "GACGACCTGAGTATCGAGACGTGCTAG", "fitted relative affinity [z-score]": 0.107}
{"Strand": "TTGGATTTCGGGACTGGATTAGTGCTA", "fitted relative affinity [z-score]": 1.32}
{"Strand": "TCCCTTTTCATGCTCTTATAGTGCTAG", "fitted relative affinity [z-score]": 3.23}
{"Strand": "TTAGGTTTCGACTATCGGGTAGTGCTA", "fitted relative affinity [z-score]": 3.31}
{"Strand": "CTCCCTCTGTAAGTCAGCACGTGCTAG", "fitted relative affinity [z-score]": 1.05}
{"Strand": "CTAGGACTGCTTTTCCTTTAGTGCTAG", "fitted relative affinity [z-score]": 1.44}
{"Strand": "TTAGACCTCAGTCTCGATTAGTGCTAG", "fitted relative affinity [z-score]": 0.146}
{"Strand": "AGGGAGGTCTCTCCCGACCTGTGCTAG", "fitted relative affinity [z-score]": -0.906}
{"Strand": "GACGATTTGAGTATCGAGACGTGCTAG", "fitted relative affinity [z-score]": 0.545}
